# Measurements from different studies.
# Compare with care: the assays were run in different laboratories. Numbers after ± are the reported error.
Compound,organism,test,test system,setting,scale,quantity,value
O=[N+]([O-])c1cc(CN2CCN(c3ccccc3F)CC2)ccc1Cl,Saccharomyces cerevisiae,"cell growth, doubling time",wild type,,,IC50,91 ± 23 µM
CC(C)[C@H](NC(=O)N[C@@H](CCCCN)C(=O)N[C@@H](CNC(=O)CCCCCCCCCCS)C(=O)NCCCNC(C[C@H]1O[C@@H](n2ccc(=O)[nH]c2=O)[C@H](O)[C@@H]1O)C(=O)O)C(=O)O (stereo partly drawn),Pseudomonas aeruginosa,growth,PAO1,,,IC50,> 100 µg/mL
O=S(=O)(c1ccc(Cl)cc1)N1CCN(c2ccc(F)cc2)CC1,Saccharomyces cerevisiae,"cell growth, doubling time",SEC14 -136 allele,Sec14 reduced ~7-fold,,IC50,> 200 µM
COc1cc([C@@H]2c3cc4c(cc3[C@@H](OC(C)C)[C@H]3COC(=O)[C@H]23)OCO4)cc(OC)c1OC,Leishmania infantum,,"promastigote, iRFP",,,EC50,> 100 µM
O=[N+]([O-])c1cc(CN2CCN(c3ccc(Cl)cc3)CC2)ccc1Cl,Saccharomyces cerevisiae,"cell growth, doubling time",SEC14 -136 allele,Sec14 reduced ~7-fold,,IC50,131 ± 52 µM
COc1cc([C@@H]2c3cc4c(cc3[C@@H](C=C(C)C)[C@H]3COC(=O)[C@H]23)OCO4)cc(OC)c1OC,Leishmania infantum,Alamar Blue,HepG2,,reference: CC50 HepG2 over EC50 amastigotes,selectivity index,> 10.8
CCOC(=O)C1=C(C)NC2=C(C(=O)CC(C)(C)C2)C1c1ccc(OCC(=O)NN=Cc2cccc(C=O)c2)cc1OCC(=O)NN=Cc1cccc(C=O)c1 (stereo not drawn),Escherichia coli,,ATCC 25922,"concentration not given, 24 h",,inhibition zone diameter,4 ± 0.01 mm
O=C(CCN(CCC(=O)N[C@@H](Cc1c[nH]c2ccccc12)C(=O)O)C(=O)CCN(CCC(=O)N(CCC(=O)N[C@@H](Cc1c[nH]c2ccccc12)C(=O)O)CCC(=O)N[C@@H](Cc1c[nH]c2ccccc12)C(=O)O)C(=O)CCOCC(COCCC(=O)N(CCC(=O)N(CCC(=O)N[C@@H](Cc1c[nH]c2ccccc12)C(=O)O)CCC(=O)N[C@@H](Cc1c[nH]c2ccccc12)C(=O)O)CCC(=O)N(CCC(=O)N[C@@H](Cc1c[nH]c2ccccc12)C(=O)O)CCC(=O)N[C@@H](Cc1c[nH]c2ccccc12)C(=O)O)(COCCC(=O)N(CCC(=O)N(CCC(=O)N[C@@H](Cc1c[nH]c2ccccc12)C(=O)O)CCC(=O)N[C@@H](Cc1c[nH]c2ccccc12)C(=O)O)CCC(=O)N(CCC(=O)N[C@@H](Cc1c[nH]c2ccccc12)C(=O)O)CCC(=O)N[C@@H](Cc1c[nH]c2ccccc12)C(=O)O)COCCC(=O)N(CCC(=O)N(CCC(=O)N[C@@H](Cc1c[nH]c2ccccc12)C(=O)O)CCC(=O)N[C@@H](Cc1c[nH]c2ccccc12)C(=O)O)CCC(=O)N(CCC(=O)N[C@@H](Cc1c[nH]c2ccccc12)C(=O)O)CCC(=O)N[C@@H](Cc1c[nH]c2ccccc12)C(=O)O)N[C@@H](Cc1c[nH]c2ccccc12)C(=O)O,human adenovirus 2,viral replication,HEL,,,EC50,2.7 ± 0.19 µM
COC(=O)[C@@H]1C(C=Nc2cc(Cl)ccc2O)=Cc2cc3c(cc2[C@H]1c1cc(OC)c(OC)c(OC)c1)OCO3,Leishmania infantum,iRFP fluorescence,"mouse splenocytes infected, amastigote, iRFP, ex vivo splenic explant",48 h,,EC50,53.4 ± 4.5 µM

# Excerpt of the above:
Compound,organism,test,test system,setting,scale,quantity,value
O=[N+]([O-])c1cc(CN2CCN(c3ccccc3F)CC2)ccc1Cl,Saccharomyces cerevisiae,"cell growth, doubling time",wild type,,,IC50,91 ± 23 µM
